Assay results from different studies.
Parts stem from different laboratories: compare values within a part only.

Series 1
Target: RNA binding protein fox-1 homolog 2, RRM domain, GST-SBP tag (RBFOX2, Homo sapiens, UniProt O43251-10, residues 100-194)
Method: RNA Bind-n-Seq
Molecule type: RNA
Matrix: in vitro
Tested at: 365 nM
Setting: natural RNA segment, single round, ends assumed
Baseline: no-protein control
Reading: higher = stronger binding
Construct (chain): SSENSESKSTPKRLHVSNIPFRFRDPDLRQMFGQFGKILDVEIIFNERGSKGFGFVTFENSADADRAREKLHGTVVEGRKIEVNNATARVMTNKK
Strand | RBNS enrichment (R)
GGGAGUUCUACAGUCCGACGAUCUUAUUUUAGAUCCCAGAGAAAUCAGGUGUGAUUAGUUCUCCAGGCAUGAAUGCAUCGUCCCUUUAUCUGUAAGAACCCUUAGUGUCCUGUAGGGGGACAGAAUGGGGUGGUGGAAUUCUCGGGUGCCAA | 1.3
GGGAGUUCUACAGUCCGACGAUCUAUCUGCUGGGCAUCUGAUCUGCCUGCCACGAGGUCCAGACUCUUCUGCAUCCACCUAUGGCAUCUGGGUUUGCUGUCACCCUACUUUGUUGUGGCCUUCCUGGUGUAAGUGGAAUUCUCGGGUGCCAA | 0.763
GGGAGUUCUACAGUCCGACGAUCCCAGGCAAGGAGACCAAAACUUUCGCUCUGUUCACUUGUGCCUCACUUUGGAAGCUUAACUUCCCACCUAUCUGGGCCUUACUGGUUUACUUGUGGUUUUCCAUAGUUUUUGGAAUUCUCGGGUGCCAA | 0.202
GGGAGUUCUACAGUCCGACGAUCAUAUCUCUUUCACUUCCUCCCCAGCUGCCAAAUGGGGAUAAAUAAUCUUACCUACCUCCUGGGGGGGGGGGAGUUCUGAGAACGAAGUCAUUCUUAGUGUUCAGGUGCUAUGGAAUUCUCGGGUGCCAA | 0.282
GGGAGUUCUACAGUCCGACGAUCUUUUACGGAUAUCUUGCUUCUGUUCCCCAUGGAGCUCCGAAUUCUUGCGUGUGUGUAGAUGAGGGGCGGGGGACGGGCGCCAGGCAUUGUCCAGACCUGGUCGGGGCCCAUGGAAUUCUCGGGUGCCAA | 0.384

Series 2
Target: Histone acetyltransferase KAT6A, winged helix 2, GST fusion (KAT6A, Homo sapiens, UniProt Q92794, residues 85-181)
Method: protein binding microarray
Molecule type: double-stranded DNA, one strand shown
Matrix: in vitro
Tested at: not given
Setting: 8-mer, flanks averaged, mean of 2 arrays, mostly near background
Baseline: not given
Reading: higher = stronger binding
Residues (chain): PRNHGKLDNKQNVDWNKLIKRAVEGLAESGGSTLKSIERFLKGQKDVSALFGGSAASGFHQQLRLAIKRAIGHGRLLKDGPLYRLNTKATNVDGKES
Strand | E-score
ATGAACCC | -0.0577
CCAGCTCG | -0.0601
GTTTAAGA | -0.115
CCGTTACC | 0.0275
TCGGGGCA | 0.102
CCGAATCG | 0.117

Mixed results
UNK zinc fingers 1-6, SBP tag: RING finger protein unkempt homolog, zinc fingers 1-6, SBP tag (UNK, Homo sapiens, UniProt Q9C0B0, residues 30-357)
UniProt Q9C0B0, sequence (30-357, looked up): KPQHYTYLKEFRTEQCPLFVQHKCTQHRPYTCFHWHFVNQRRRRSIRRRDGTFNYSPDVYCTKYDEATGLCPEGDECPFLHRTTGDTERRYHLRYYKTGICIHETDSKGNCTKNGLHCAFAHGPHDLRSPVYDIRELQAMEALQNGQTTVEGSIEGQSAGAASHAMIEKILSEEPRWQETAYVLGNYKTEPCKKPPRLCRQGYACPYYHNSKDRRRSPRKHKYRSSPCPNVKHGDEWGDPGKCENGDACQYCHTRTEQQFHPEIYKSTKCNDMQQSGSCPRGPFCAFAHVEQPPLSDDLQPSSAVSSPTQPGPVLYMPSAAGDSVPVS
Molecule | target | test | test system | setting | how to read | endpoint | result
GGGAGUUCUACAGUCCGACGAUCUCCUCAACUUGUUCUAGCUUGUGAUCCUUCAAAGUUGGGCCAGGCAUUAGUGCUAGGUACUACAAAAUUGUAUUUUGCCGUUGCCACAGAUGAGAGAGCUAGGUAUUAAAAACAAUAAAGCAACAGAGGAUUGAGCAUCA | UNK zinc fingers 1-6, SBP tag | RNA Bind-n-Seq | RNA, in vitro | 100 nM, RNA with constant flanks, vertebrate orthologous sites, ends assumed | baseline: input RNA pool, higher = stronger binding | bound/input enrichment | 0.656 ratio
PhoQ, residues 284 288 289 292 302 303 SIHLQL | PhoP, residues 12 14 15 18 19 LHTVM (Escherichia coli, UniProt P23836) | Sort-seq, measured: YFP reporter | E. coli | PhoQ-PhoP variant library, added: 10 µM Mg2+ | baseline: high Mg2+ state, higher = stronger signaling | fold induction | 13.8
GGGAGUUCUACAGUCCGACGAUCCUGUUGUUAAGCACUGUGUUCCAGACCGUGUCUGACUUUAGUGUAACCUAGGAGAUUUUAUAGUUUUAUUUUAAUGAAACCUGCUUGACGCAGAGCAGUGAGGAGAGCAGUGUCCUCUACCAACAGAGGAUUGAGCAUCA | UNK zinc fingers 1-6, SBP tag | RNA Bind-n-Seq | RNA, in vitro | 100 nM, RNA with constant flanks, vertebrate orthologous sites, ends assumed | baseline: input RNA pool, higher = stronger binding | bound/input enrichment | 1.61 ratio

Some of these lines once more (series 1):
Strand | RBNS enrichment (R)
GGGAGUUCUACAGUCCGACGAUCCCAGGCAAGGAGACCAAAACUUUCGCUCUGUUCACUUGUGCCUCACUUUGGAAGCUUAACUUCCCACCUAUCUGGGCCUUACUGGUUUACUUGUGGUUUUCCAUAGUUUUUGGAAUUCUCGGGUGCCAA | 0.202
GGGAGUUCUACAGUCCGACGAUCUUAUUUUAGAUCCCAGAGAAAUCAGGUGUGAUUAGUUCUCCAGGCAUGAAUGCAUCGUCCCUUUAUCUGUAAGAACCCUUAGUGUCCUGUAGGGGGACAGAAUGGGGUGGUGGAAUUCUCGGGUGCCAA | 1.3
